Measurements gathered from unrelated publications.
A part holds a random share of what one study measured.

Series 1
Target: Sal-like protein 4, full length isoform B (SALL4, Homo sapiens, UniProt Q9UJQ4-2, residues 1-616)
Technique: universal PBM
Form: double-stranded DNA, one strand shown
Sample: in vitro
Concentration: not given
Setting: 8-mer, flanks averaged, mean of replicates
Direction: higher = stronger binding
Endpoint: E-score
Construct (chain): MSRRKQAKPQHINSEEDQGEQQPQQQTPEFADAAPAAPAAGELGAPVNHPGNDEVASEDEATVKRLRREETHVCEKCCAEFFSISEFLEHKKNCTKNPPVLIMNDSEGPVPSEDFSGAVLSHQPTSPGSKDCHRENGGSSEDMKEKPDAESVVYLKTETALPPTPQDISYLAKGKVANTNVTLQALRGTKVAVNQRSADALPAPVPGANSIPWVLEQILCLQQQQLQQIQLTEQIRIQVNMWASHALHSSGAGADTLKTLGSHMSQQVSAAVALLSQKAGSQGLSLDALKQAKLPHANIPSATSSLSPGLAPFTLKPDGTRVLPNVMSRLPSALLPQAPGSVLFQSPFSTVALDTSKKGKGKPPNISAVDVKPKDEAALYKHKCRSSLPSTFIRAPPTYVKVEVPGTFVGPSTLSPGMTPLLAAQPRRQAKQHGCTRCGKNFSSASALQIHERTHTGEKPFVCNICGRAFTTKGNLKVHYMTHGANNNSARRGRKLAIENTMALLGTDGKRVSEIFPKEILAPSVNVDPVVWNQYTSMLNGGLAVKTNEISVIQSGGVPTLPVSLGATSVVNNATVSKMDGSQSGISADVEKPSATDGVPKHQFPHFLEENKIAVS
AAAACAAA: 0.28
ATCCTTGA: 0.0339
TCGAATAA: 0.222
GCACCCTA: -0.0728
AGCGGCCA: -0.305
ATGGGTTA: 0.139
CAGGTAGG: 0.0122
ACTTAAAC: 0.0887
CCGCCTAA: -0.142
GTCTGTTA: 0.161
AGCACACA: -0.159
AGATCTCC: -0.218
CCAAATCC: -0.104
AACTAGCA: -0.035
GCAATGAA: 0.0693
GAAATGAA: 0.232
ACATACCT: 0.11
GTACAGCA: -0.0641
GAGATGGC: -0.0681
ATGCTCAC: -0.0779

Series 2
Target: RNA binding protein fox-1 homolog 2, RRM domain, GST-SBP tag (RBFOX2, Homo sapiens, UniProt O43251-10, residues 100-194)
Technique: RNA Bind-n-Seq
Form: RNA
Sample: in vitro
Concentration: 365 nM
Setting: natural RNA segment, single round, ends assumed
Baseline: no-protein control
Direction: higher = stronger binding
Endpoint: RBNS enrichment (R)
Shared flanks, not repeated: GGGAGUUCUACAGUCCGACGAUC … UGGAAUUCUCGGGUGCCAA
Residues (chain): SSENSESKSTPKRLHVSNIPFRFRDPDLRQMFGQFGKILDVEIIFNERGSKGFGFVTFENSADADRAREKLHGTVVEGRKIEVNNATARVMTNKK
UAUUUUUUUUUUAAACUGAAUCCUGUUUUGUAAAUAAUAUACAUUUAAUGUUGCUUAGCAUAAAAAAUACUUUCUUACAGUAAUCUUCUUUAAAUUGGGUAUAUGAAAAC: 0.606
UCAGGAAUCGGAAUCCUGUCGAUUAGACUGGACAGCUUGUGGCAAGUGAAUUUGCCUGUAACAAGCCAGAUUUUUUAAAAUUUAUAUUGUAAAUAUUGUGUGUGUGUGUG: 0.781
GCUUCAUAAUUUCCAUGAUACAAAGAUCUUUUUUCAGGUGGAUUUUUACCUUUGUUCCUUUUGCUCUGAUAGACAAAAUCAGUUUAGGACUAUUAAAGAAUGUUUUGGAA: 0.519
ACUUUCCCACACUGUGCCUUUACGAUCAGCGUGACAGAGUAGAAGCUGGAGUGCCUCACCACACGGCCCGGAAACAGCGGGAAGUAACUGGAAAGAGCUUUAGGACAGCU: 0.289
AUAUUAUUUGAGCUAUUUAAAGCUUAUUAUAUUUUAGUAUGAACUAAAUGAAGGUUAAAACAUGCUUAAGAAAAAUGCACUGAUUUCUGCAUUAUGUGUACAGUAUUGGA: 0.346
CCCCAAACCCUCAUUUUGCAGAAACACUAGGUCUGUGGAGUAGGUUGUGAUUCUGGGGUCUCUUCAAUGACCCCGGUACCUCAUGAACCCCUGCUUAGCAUGGUUGUGCU: 2.56
GCCCCAUGCUGCAUCGUGUUGUAUUGGGAUGGGGCUGAGGAACAUGCUCCCUCCCUCCCUCCCAUAAAAUGCCUGCUCUUCACCUCCCACCUUUGUGGGGGGCUUUUGAG: 0.629
GUACAUUUUAAAGGAUAAUGGUGAACAUUUUAAUGGGUUUCCCUUGCCCUUUCCAUAUUUAACCUAUUUCCACAUUCUCUCUCACUCACAUUUUCUCAGUGUGCCCUUCU: 0.753
CUUCCUUCCCCCUUUAACUGAGUCUGCUGUUCAGUUAAGCCUUUAUUUCCUCUCCAGUACCCAUUUCCAAAGAGAAAGAGUGAAGUACUUUGAAGUCUGUACUUGAAAUC: 0.927
CAGAAUAGAUACCAAGAAAAAGCUAUCUAUUAGGUUUCUAAUUCCAGGACCUAGAUAGACAAGUACACUUUUAAUUGAGGCCAAAUGAUGAGCCACAAUGGUAACCCAUA: 0.451
CUAUAUCUGUACAGAGUAUAUUCGGUAAGUGCACUAUUAAAUGUCUAAGGGAAGAGUCUGGCCUGCUCUCUGACUUGCACCUUCCUCGCCCUUAGAAGCAGGGAUUGCAA: 0.607
GGGGGCAGGGCCUUUGUCUGUCUCAUCUCUGUAUUCCCAAAUGCCUAACAGUACAGAGCCAUGACUCAAUAAAUACAUGUUAAAUGGAUGAAUGAAUUCCUCUGAAACUC: 0.524

Series 3
Target: Interferon regulatory factor 5, full length, phosphomimetic (IRF5, Homo sapiens, UniProt Q13568-2, residues 1-514, S451D/S453D/S456D/S462D)
Technique: protein-binding microarray
Form: double-stranded DNA, one strand shown
Sample: in vitro
Concentration: 940 nM top
Setting: 60-bp whole probe
Added: salmon DNA 0.4 mg/ml
Baseline: random background probes
Direction: higher = stronger binding
Endpoint: fitted relative affinity
Shared flanks, not repeated: GCCTAGCAC … GTCTTGATTCGCTTGACGCTGCTG
GACGAACTGGGACTGGAGACGTGCTAG: -0.597 z-score
GACGGTATCCTTTTCCCGACGTGCTAG: 1.21 z-score
TTAGGTATCGGTTTCGATTAGTGCTAG: 12.4 z-score
GGCGGTTTCCTTCTCCTGACGTGCTAG: 2.31 z-score
GACGGAATCGGTTTCGGGACGTGCTAG: 5.08 z-score
GACCATCTCAGACTGGAGACGTGCTAG: -0.014 z-score
TTAGGTTTCGGGACTGCGTTAGTGCTA: 8 z-score
TTAGGAATCGGTTTCGGTTAGTGCTAG: 9.1 z-score
TTGAGGTTTTCTCTGGTTCTGTGCTAG: 0.327 z-score
CAAATACTCTTCCATGGAGAAGTGCTA: -0.156 z-score
TTAGGTTTCGACTTTAGGTTAGTGCTA: 8.87 z-score
GACGATTTCAGACTTGAGACGTGCTAG: -0.374 z-score
TTAGGTCTAGGTTTCGGTTAGTGCTAG: 7.22 z-score
ATAGGTTCCGGTTTCGGTTAGTGCTAG: 8.59 z-score
TTAGAACTGATTATCGATTAGTGCTAG: -0.0357 z-score
TAAGGTTTCCTTATCCTTTAGTGCTAG: 1.39 z-score
TTAGGTATCCTTATCCTTCAGTGCTAG: 0.39 z-score
GACGAATTCAGTATCGAGACGTGCTAG: 2.54 z-score
GACGCTTTCAGTCTCGAGACGTGCTAG: 2.73 z-score

Series 4
Target: Ras GTPase-activating protein-binding protein 1, C-terminal RGG region (G3BP1, Homo sapiens, UniProt Q13283)
Sequence of UniProt Q13283 (whole entry, looked up): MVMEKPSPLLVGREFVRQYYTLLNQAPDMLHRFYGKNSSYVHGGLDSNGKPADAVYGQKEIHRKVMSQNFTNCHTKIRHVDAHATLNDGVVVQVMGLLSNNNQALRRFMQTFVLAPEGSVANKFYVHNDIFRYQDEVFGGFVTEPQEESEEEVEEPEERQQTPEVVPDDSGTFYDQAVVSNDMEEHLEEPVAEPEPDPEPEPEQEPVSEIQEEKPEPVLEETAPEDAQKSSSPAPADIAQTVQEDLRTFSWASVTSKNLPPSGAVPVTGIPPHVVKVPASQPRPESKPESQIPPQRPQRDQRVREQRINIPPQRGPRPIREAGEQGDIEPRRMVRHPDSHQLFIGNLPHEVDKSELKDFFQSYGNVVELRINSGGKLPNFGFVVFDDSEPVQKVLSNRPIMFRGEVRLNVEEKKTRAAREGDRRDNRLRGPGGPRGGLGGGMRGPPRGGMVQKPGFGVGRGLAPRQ
Technique: RNA Bind-n-Seq
Form: RNA
Sample: in vitro
Concentration: 1 µM
Setting: whole 134-nt RNA, ends assumed
Added: 150 mM KCl
Baseline: input library
Direction: higher = stronger binding
Endpoint: log2 enrichment
Shared flanks, not repeated: GGGAGUUCUACAGUCCGACGAUC … UGGAAUUCUCGGGUGUCAAGG
AAGUCCUGUGCUACACAUCGUAUGUACCGAAUCGGGGUUUGGGGUGGGGAAAGGGGAAAGUAUUAUGUUACGCCGUUCGGAUCUGCACUU: 1.93
UGGGAGGUGGAUUUUGUUUAUUUUUUUAGCUCAUUUCCAGGGGUGGGAAUUUUUUUUUUAUAUGUGUCAUGAAUAAAGUUGUUUUUGAAA: 3.62
UUCCUCAAGUCCUGUGCUACACAUCGUAUGUACCGAAUCGGUGGUGGUGGGAAAGUAUUAUGUUACGCCGUUCGGAUCUGCACUUCCAGC: -0.412
CUCAAGUCCUGUGCUACACAUCGUAUGUACCGAAUCGGGUGGGUUUGGGUGGGAAAGUAUUAUGUUACGCCGUUCGGAUCUGCACUUCCA: 1.99
AGUCCUGUGCUACACAUCGUAUGUACCGAAUCGGGUUUUUGGGUUUUUGGGUUUUUGGAAAGUAUUAUGUUACGCCGUUCGGAUCUGCAC: -1.11
GUCCUGUGCUACACAUCGUAUGUACCGAAUCGGGAAAGGGAAAAAGGGAAAAAAAGGGAAAGUAUUAUGUUACGCCGUUCGGAUCUGCAC: -0.466
UCAAGUCCUGUGCUACACAUCGUAUGUACCGAAUCGGGGCCCGGCCCGGGCCCGGAAAGUAUUAUGUUACGCCGUUCGGAUCUGCACUUC: -2.07
UGAGAAACUUGCUCAAAUAUUGGCAGCUAGACAGUUAGAAAUUAAACAGAUUCCAUCUGAUGGCCACUGUAUGUAUAAAGCCAUUGAAGA: -1.63
CAAGUCCUGUGCUACACAUCGUAUGUACCGAAUCGGGUUUUUUUGGGUGGGAGGGAAAGUAUUAUGUUACGCCGUUCGGAUCUGCACUUC: 1.09
CAAGUCCUGUGCUACACAUCGUAUGUACCGAAUCGGGGAAAGGGGAAAGGAAAGGAAAGUAUUAUGUUACGCCGUUCGGAUCUGCACUUC: -1.01
GCAGGAAGUAAAAACAAAUGGAAAUGCUGCGGAUAGUGGCAGGGGUGGGGGUUGCUAAGGAAAGGGUGGGAUGGGAGUGGGUAAAGAGUU: 1.48
UAACUUUAGUGGAGGAUCUGAUGGAUAUGGCAGUGGACGUGGAUUUGGGGAUGGCUAUAAUGGGUAUGGAGGAGGACCUGGAGGUGGCAA: -1.16
CAAGUCCUGUGCUACACAUCGUAUGUACCGAAUCGGAAAGGUUUUUGGAAAAAGGAAAGUAUUAUGUUACGCCGUUCGGAUCUGCACUUC: -1.82
CACAGACAACACGCACCCACACAGAUACAGAGGGAAGGGGUUGGGAUGGGGACAGGGUGCACAGCAGGGCGGGGUAGGACCCCAGCCCCU: -0.00531
